# Measured values gathered from unrelated publications.
# Numbered parts are unrelated; each lists some results of a single study. Changes are numbered by the printed parent chain.

# Study 1 — target: CCNA2, cyclin fold, Cln2 fusion (human); method: yeast growth competition, sequencing; medium: yeast; setting: strong parent motif; reference: not given; direction: higher = stronger binding
# Parent: CDC6 docking peptide (human); TLKGRRLVFDNQL; partner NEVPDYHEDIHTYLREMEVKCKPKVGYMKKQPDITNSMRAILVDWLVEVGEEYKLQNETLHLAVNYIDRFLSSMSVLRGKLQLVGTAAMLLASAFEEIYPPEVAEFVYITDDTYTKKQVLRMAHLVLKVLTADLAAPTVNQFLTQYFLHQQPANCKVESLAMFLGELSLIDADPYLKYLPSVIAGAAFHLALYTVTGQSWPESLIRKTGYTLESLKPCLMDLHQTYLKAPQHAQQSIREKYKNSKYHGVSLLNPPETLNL
Change,normalised enrichment score
G4D,0.69
G4M,2.56
V8C,3.45
Q12R,2.16
K3L,1.95
R5M,1.22
F9L,1.24
F9K,1.81
Q12V,3.43
T1L,2.61
G4F,1.15
L13Y,3.58
L2P,2.83
R6I,0.13
T1R,3.83
Q12G,3.28
V8G,1.23
L7D,0.129
G4P,5.2
K3P,1.61
G4A,3.64

# Study 2 — method: protein binding microarray; molecule type: double-stranded DNA, one strand shown; medium: in vitro; tested at: not given; reference: not given; direction: higher = stronger binding
# Target: Histone acetyltransferase KAT6A, both winged helices, GST fusion (KAT6A, Homo sapiens, UniProt Q92794, residues 1-181)
# Setting: 8-mer, flanks averaged, mean of 2 arrays, mostly near background
# Construct (chain): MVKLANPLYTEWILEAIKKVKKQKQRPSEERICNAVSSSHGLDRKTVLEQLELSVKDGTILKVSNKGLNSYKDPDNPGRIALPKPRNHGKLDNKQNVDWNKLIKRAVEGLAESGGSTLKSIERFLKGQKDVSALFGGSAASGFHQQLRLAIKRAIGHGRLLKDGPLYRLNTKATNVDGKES
Sequence,E-score
AGCCACTA,-0.227
CCTCCAGC,-0.0983
AGTGAAAT,-0.312
CCCAGGTC,-0.113
ATTCAATC,-0.0292
AAGAGCGA,0.0331
CACGTGGA,-0.0572
TAAGGGCA,-0.109
GAAGCTCC,0.0842
GACCCCGC,0.293
ATCCCCCA,-0.27
GGGCCTTA,0.0318
AAATCCCG,0.141
ATTCCCCG,0.2
CATTTGCC,-0.0662
GCCAGGGA,-0.104

# Study 3 — target: CREM, bZIP domain (human); method: DHFR protein complementation; medium: yeast; reference: wild-type JUN-FOS pair; direction: higher = stronger binding
# Setting: single substitutions, most at no-binding floor
# Parent: JUN, bZIP domain (human); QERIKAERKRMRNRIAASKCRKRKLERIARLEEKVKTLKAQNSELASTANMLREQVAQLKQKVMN; partner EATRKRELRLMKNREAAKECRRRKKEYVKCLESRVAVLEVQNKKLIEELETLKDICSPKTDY
Change,binding fitness
N42I,-1.47 natural log
N42Q,-1.42 natural log
I28F,-1.24 natural log
K39Q,-1.39 natural log
S43Q,-1.43 natural log
L38W,-1.55 natural log
T48P,-1.55 natural log
A40G,-1.58 natural log
N42E,-1.42 natural log
A49K,-1.47 natural log
K36C,-1.23 natural log
A46S,-1.42 natural log
L38Q,-1.48 natural log
K36W,-1.52 natural log
M51T,-1.39 natural log
A46L,-1.31 natural log
K34A,-1.48 natural log

# Study 4 — method: DHFR PCA, deep sequencing; medium: yeast; added: (+)-ABA 710 µM; reference: wild-type fitted maximum; direction: higher = stronger binding
# Target: ABI1, truncated, D143A, DHFR fusion (Arabidopsis thaliana)
# Setting: methotrexate growth selection, single substitutions
# Parent: PYL1, truncated, DHFR fusion (Arabidopsis thaliana); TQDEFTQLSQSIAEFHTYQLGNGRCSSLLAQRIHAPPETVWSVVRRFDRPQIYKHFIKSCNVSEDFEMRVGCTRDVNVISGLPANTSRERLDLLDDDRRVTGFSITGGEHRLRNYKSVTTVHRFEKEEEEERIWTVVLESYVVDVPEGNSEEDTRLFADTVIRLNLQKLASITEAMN
Change,relative binding score [%]
V43W,71.4
D159F,19
E14D,89
P50S,27.3
S9R,105
Y115V,-9.3
L8A,81.9
K54D,6.46
A170K,102
T6H,117
R32C,93.4
R155Q,103
H122M,58.1
V143P,-10.3
R113P,58.3

# Study 5 — method: universal PBM; molecule type: double-stranded DNA, one strand shown; medium: in vitro; tested at: not given; direction: higher = stronger binding
# Target: Sal-like protein 4, full length isoform B (SALL4, Homo sapiens, UniProt Q9UJQ4-2, residues 1-616)
# Setting: 8-mer, flanks averaged, mean of replicates
# Construct (chain): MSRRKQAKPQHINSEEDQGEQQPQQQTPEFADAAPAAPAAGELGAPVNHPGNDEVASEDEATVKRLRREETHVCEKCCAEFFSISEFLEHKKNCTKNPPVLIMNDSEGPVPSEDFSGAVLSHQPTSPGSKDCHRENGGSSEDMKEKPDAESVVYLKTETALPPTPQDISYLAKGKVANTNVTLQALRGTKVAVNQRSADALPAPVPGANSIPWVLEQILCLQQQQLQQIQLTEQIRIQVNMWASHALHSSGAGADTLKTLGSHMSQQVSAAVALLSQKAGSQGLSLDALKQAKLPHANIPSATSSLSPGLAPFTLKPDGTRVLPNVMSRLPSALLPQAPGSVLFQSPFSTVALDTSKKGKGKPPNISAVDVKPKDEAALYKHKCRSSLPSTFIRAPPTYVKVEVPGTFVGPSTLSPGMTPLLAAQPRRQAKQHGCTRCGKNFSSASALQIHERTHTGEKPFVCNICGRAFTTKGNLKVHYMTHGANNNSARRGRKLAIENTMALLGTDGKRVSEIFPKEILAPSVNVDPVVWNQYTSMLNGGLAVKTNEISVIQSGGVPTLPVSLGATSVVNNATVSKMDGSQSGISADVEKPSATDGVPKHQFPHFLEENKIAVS
Sequence,E-score
AAGATAAG,0.189
AGGTGAAC,-0.149
ATCCTGTG,0.0221
CTTAGTTA,0.0827
AAGGGCAT,0.00885
ATGGGCTG,-0.166
AAGATCGG,-0.158
GACGTCCA,-0.0525
CATTCGCA,0.0748
CGCGACGC,-0.312
AAATCCCG,-0.0246
AAGGATCT,-0.0566
ATTAAGGC,0.172
GTCTGCCA,-0.172
TAGGACTA,0.105
TAAGGTCA,0.128
AGTCGCTC,-0.131
CTGCCAAC,-0.0291
AAAGACCA,-0.0282
GTTCGCGA,-0.0301
TCACTTCA,-0.00836
CACTGCGG,-0.208
CGTGGGAA,-0.111

# Study 6 — method: RNA Bind-n-Seq; molecule type: RNA; medium: in vitro; tested at: 365 nM; reference: no-protein control; direction: higher = stronger binding
# Target: RNA binding protein fox-1 homolog 2, RRM domain, GST-SBP tag (RBFOX2, Homo sapiens, UniProt O43251-10, residues 100-194)
# Setting: natural RNA segment, single round, ends assumed
# Constant ends, left off below: GGGAGUUCUACAGUCCGACGAUC … UGGAAUUCUCGGGUGCCAA
# Construct (chain): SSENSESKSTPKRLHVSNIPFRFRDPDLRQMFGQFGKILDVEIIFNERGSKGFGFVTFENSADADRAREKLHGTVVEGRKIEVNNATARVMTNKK
Sequence,RBNS enrichment (R)
GGCUUUGGUCUGGGCAGUGCAUGUGUUAGUAGUGUACGUGGGCAGGUCGGGCUUUCUAAGCUUUGUCAGAUAACUAUUUUUCCUAAGUAUGUGUUUCCUACUCCAGUGAU,1.18
AUGAUUGAUGACGGGUUCCCGCCUGCUGUCCCCUCCCUGAUCACACAGCUAACGAGGCUGCCUCCAGCAUUUCCUGAUUUCCUCUGUGGUAAUAAAAGCUUUCUGUGCUU,0.579
CCUGCAACCCUAGCAAUACCAUGCUCGCUGGAGAGGCUCAGCUGCCUGCUUCUGGCCUGCCUGUGUCUGCUGCCGAGAAGCCCGUGCCCCCGGGAGGGCUGCCGCACUGC,0.304
UCAUGUAGCCCAGGCUGGCCUUGAGCUCUGUAUGUAUCUGAGGCUAGUCCUGAAUUCCUAACUCUCCUGAGUGCUGAGAUUGUCAAGCACUGCAUUAAACCUGGCUGGUC,1.17
CAGUGCUUGAUAUUUCAGAGUCAGUCAUUGGUUAUACAUGUGUAGUUCCAAAGCACAUAAGCUAGAAGAAGAAAUAUUUCUAGGAGCACUACCAUCUGUUUUCAACAUGA,0.404
AUUAUAUAUAAGGAAAAUAACAAAUCGGUGUUUUUAAGACUAUCACUGUCAUAUAUUAGAUCCUUGUAUUAGUCCAUCCAUUAAUAUUAGUUCUAUUCGUGGUGCUAGGU,0.296
CCCUUUCCUCAGGAGGUACCGCUCUCCAAGGUGUGCUAGCAGUGGGCCCUGCCCAACUUCAGGCAGAACAGGGAGGCCCAGAGAUUACAGAUCCCCUCCUGUAAGUGGCC,0.294
ACCAAAUCUCAGUUGUUUGCUUCUUGCCAUCACUGGUCCAGGUCUUCAGUUUCCGAAUCUCUUUCCCUUCCCCUGUGGUCUAUUGUCGCUAUGUGACUUGCGCUUAAUCC,0.457
CUUUGGUGGCCCUCUACUCUAUUGUCCCACACCCUACAUUCUCUCCUCUGGACUCCCAAGGAGGCUGGUGCCAGGGAGAUGCCCUCACCCACCCCCAUUUGCACUGAGAA,0.648
AGAUGAAAAUGCUGAGUUCUGAGAGAGUUCCAAUGAGGAGCUGCCUUUCAGCUUUGGAAAAUAUGCAACUAAAACAAAACCAAACAUUAUUGUAAUCUGACACAGGCAAA,1.14
AUUGUAACGCCUAAUAAUAUUUCUGUGAGCCUUUAAUGUGAUUUAUAAGAUGGCCGAAUUACUGAAAUCACCAUUAUACCUCUUCCAUAAAACGACUCCAAAGUUAGACC,0.486
UCCUCCGUUGUUCCCAGGACUCAAGAGGAAUUUGUUUCUCUGCUGUCAGCUUCCUGUCUGGCUCAGUAUAGCCUCACUCUGCCGUUAUGCAAAUGGAGAUCAAAGUAAUU,0.278

# Study 7 — method: RNAcompete; molecule type: RNA; medium: in vitro; tested at: 20 nM; setting: 7-mer, probes averaged, single round; reference: mean of 7-mers; direction: higher = stronger binding
# Target: PABPC1L2, full length, GST fusion (mouse, UniProt A0ABA7IW68)
# Residues (chain): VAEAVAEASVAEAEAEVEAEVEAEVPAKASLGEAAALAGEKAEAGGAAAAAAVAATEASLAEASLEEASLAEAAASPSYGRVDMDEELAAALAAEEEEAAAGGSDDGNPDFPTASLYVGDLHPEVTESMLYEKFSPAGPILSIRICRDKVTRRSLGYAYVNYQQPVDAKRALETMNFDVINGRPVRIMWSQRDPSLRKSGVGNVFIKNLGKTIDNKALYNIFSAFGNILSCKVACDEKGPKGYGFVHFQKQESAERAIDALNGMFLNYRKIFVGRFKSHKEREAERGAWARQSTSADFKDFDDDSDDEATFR
Sequence,7-mer Z-score
AAGGACA,0.539
UAAUAGC,-0.18
CACGGUA,0.00436
AUUCGGU,-0.164
GCAUCGA,-0.124
UAAUAGU,-0.282
GCAUUCA,-0.0355
GGUCCAG,-0.0446
AGAGCAA,0.334
CCGCUUU,-0.275
ACCAUAC,-0.144
CCGGGGA,-0.0391
UAUCCAU,-0.228
AGCCGUA,-0.269
GGAUGAA,0.166
UUAUAAC,-0.0754
GGCUCAA,0.247
ACACCAU,-0.0355
GAUUACU,-0.224

# Some of these lines once more (study 5):
Sequence,E-score
AGTCGCTC,-0.131
CTGCCAAC,-0.0291
AAAGACCA,-0.0282
GTTCGCGA,-0.0301
TCACTTCA,-0.00836
CACTGCGG,-0.208
CGTGGGAA,-0.111
